Assay results from different studies.
± marks the error that the study gave.
Organism: Leishmania donovani

SMILES	assay	system	conditions	IC50
COc1ccc2c(c1)c1cc(C=O)c(OC)cc1n2C	viability	axenic amastigotes	72 h	> 40 µg/mL
Cc1nn(Cc2ccc(O)c(C=O)c2)c(=O)[nH]c1=O	parasite growth, SYBR Green		amastigote	29 µM
N=C(N)c1ccc(OCCCCCOc2ccc(C(=N)N)cc2)cc1	Alamar Blue	axenic amastigotes	72 h, 37 °C	2.1 µg/mL
O=Cc1c[nH]c2ccc([N+](=O)[O-])cc12	parasite growth, resazurin	THP-1	24 h, intracellular, amastigote	> 10 µM
Cc1cn(Cc2ccc(O)c(C=O)c2)c(=O)[nH]c1=O	parasite growth, SYBR Green	RAW264.7	intracellular, amastigote	> 100 µM
C#CCn1cc(/C=N/N2C(=O)CSC2=S)c2cc([N+](=O)[O-])ccc21	parasite growth, resazurin	THP-1	72 h, intracellular, amastigote	> 10 µM
N=C(N)c1ccc(OCCCCCOc2ccc(C(=N)N)cc2)cc1	viability	promastigotes	72 h, 26 °C	1.2 µg/mL
O=C1CSC(=S)N1/N=C/c1cn(Cc2ccccc2)c2ccc([N+](=O)[O-])cc12	parasite growth, resazurin	THP-1	24 h, intracellular, amastigote	> 10 µM
C[C@@H]1[C@H](O)[C@@H](C)/C=C/C=C/C=C/C=C/C=C/C=C/C=C/[C@H](O[C@@H]2O[C@H](C)[C@@H](O)[C@H](N)[C@@H]2O)C[C@@H]2O[C@](O)(C[C@@H](O)C[C@@H](O)[C@H](O)CC[C@@H](O)C[C@@H](O)CC(=O)O[C@H]1C)C[C@H](O)[C@H]2C(=O)O	parasite growth, resazurin		72 h, amastigote	0.32 µg/mL
COc1c(CC(C)O)c2c3c(CC(C)O)c(OC)c(=O)c4c(O)cc5c(c6c(cc(O)c(c1=O)c62)OCO5)c43 (stereo not drawn)	growth	MHOM/SD/00/1S axenic amastigotes	in dark	0.46 ± 0.05 µM
CCn1cc(C(=O)NCCNCCO)c(=O)c2cc(OC)c(OCc3cc(F)cc(F)c3)cc21		Bob promastigotes	120 h	> 20 µM
O=Cc1cc(Cn2cc(F)c(=O)[nH]c2=O)ccc1O	parasite growth, SYBR Green	RAW264.7	intracellular, amastigote	> 100 µM
C#CCn1cc(/C=C2\SC(=S)NC2=O)c2cc([N+](=O)[O-])ccc21	parasite growth, resazurin	THP-1	72 h, intracellular, amastigote	> 10 µM
N=C(N)c1ccc(OCCCCCOc2ccc(C(=N)N)cc2)cc1	parasite growth	THP-1	intracellular, amastigote	6.53 µM
O=[N+]([O-])c1ccc2[nH]ccc2c1	parasite growth, resazurin	THP-1	24 h, intracellular, amastigote	> 10 µM
O=Cc1cc(Cn2ccc(=O)[nH]c2=O)ccc1O	parasite growth, SYBR Green	RAW264.7	intracellular, amastigote	> 100 µM
O=C1CSC(=S)N1/N=C/c1cn(Cc2cccc(Cl)c2)c2ccc([N+](=O)[O-])cc12	parasite growth, resazurin	THP-1	24 h, intracellular, amastigote	> 10 µM
C[C@@H]1N[C@H](CCCCCCCCCCc2cc(CCCCCCCCCC[C@H]3CC[C@@H](O)[C@@H](C)N3)c[n+]3c2CCC3)CC[C@H]1O	parasite growth, resazurin		72 h, promastigote	1.22 µg/mL
CC/C(=C\c1ccc(OCC(=O)NC(Cc2ccccc2)C(=O)N2CCOCC2)cc1)[N+](=O)[O-] (stereo not drawn)		macrophages, intracellular amastigotes	72 h	8.07 µM
O=Cc1cc2c(cc1O)[nH]c1ccc(O)cc12	viability	axenic amastigotes	72 h	> 40 µg/mL
C#CCn1cc(C=O)c2cc([N+](=O)[O-])ccc21	parasite growth, resazurin	THP-1	24 h, intracellular, amastigote	> 10 µM

Repeated from above:
SMILES	assay	system	conditions	IC50
O=Cc1c[nH]c2ccc([N+](=O)[O-])cc12	parasite growth, resazurin	THP-1	24 h, intracellular, amastigote	> 10 µM
Cc1cn(Cc2ccc(O)c(C=O)c2)c(=O)[nH]c1=O	parasite growth, SYBR Green	RAW264.7	intracellular, amastigote	> 100 µM
C#CCn1cc(/C=N/N2C(=O)CSC2=S)c2cc([N+](=O)[O-])ccc21	parasite growth, resazurin	THP-1	72 h, intracellular, amastigote	> 10 µM
